{"data": "Assay results from different studies", "note": "Numbered parts are unrelated; each lists some results of a single study."}
{"data": "Block 1", "target": "Sal-like protein 4, full length isoform B (SALL4, Homo sapiens, UniProt Q9UJQ4-2, residues 1-616)", "method": "universal PBM", "form": "double-stranded DNA, one strand shown", "matrix": "in vitro", "concentration": "not given", "setting": "8-mer, flanks averaged, mean of replicates", "reading": "higher = stronger binding", "Target sequence (chain)": "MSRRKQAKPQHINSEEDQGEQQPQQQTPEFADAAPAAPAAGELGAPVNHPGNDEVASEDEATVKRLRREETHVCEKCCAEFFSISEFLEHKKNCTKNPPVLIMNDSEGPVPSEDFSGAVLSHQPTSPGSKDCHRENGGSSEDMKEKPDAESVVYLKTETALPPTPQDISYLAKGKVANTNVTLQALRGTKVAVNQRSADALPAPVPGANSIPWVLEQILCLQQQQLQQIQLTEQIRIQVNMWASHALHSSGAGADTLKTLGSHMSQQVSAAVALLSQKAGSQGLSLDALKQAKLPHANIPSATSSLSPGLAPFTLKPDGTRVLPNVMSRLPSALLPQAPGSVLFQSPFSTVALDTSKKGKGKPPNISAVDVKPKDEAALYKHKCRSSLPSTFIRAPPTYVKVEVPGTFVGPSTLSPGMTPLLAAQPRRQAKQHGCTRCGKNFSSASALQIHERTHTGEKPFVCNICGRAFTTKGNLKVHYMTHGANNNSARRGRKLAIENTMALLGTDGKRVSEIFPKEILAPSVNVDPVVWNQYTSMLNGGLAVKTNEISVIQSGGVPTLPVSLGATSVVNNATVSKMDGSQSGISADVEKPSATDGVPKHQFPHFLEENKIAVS"}
{"Sequence": "GCGCCAGC", "E-score": -0.24}
{"Sequence": "AGAAATAT", "E-score": 0.419}
{"Sequence": "CAGAGAGA", "E-score": -0.207}
{"Sequence": "CCTGAAAG", "E-score": 0.0391}
{"Sequence": "CACGCTAG", "E-score": -0.0474}
{"data": "Block 2", "target": "Phosphate system positive regulatory protein PHO4, full length, GST-tagged (PHO4, Saccharomyces cerevisiae, UniProt P07270, residues 1-312)", "method": "competition protein-binding microarray", "form": "double-stranded DNA, one strand shown", "matrix": "in vitro", "concentration": "2 µM", "setting": "whole 60-bp probe, lowest competitor level", "added": "Cbf1 competitor, 0.05 µM", "reading": "higher = stronger binding", "Target sequence (chain)": "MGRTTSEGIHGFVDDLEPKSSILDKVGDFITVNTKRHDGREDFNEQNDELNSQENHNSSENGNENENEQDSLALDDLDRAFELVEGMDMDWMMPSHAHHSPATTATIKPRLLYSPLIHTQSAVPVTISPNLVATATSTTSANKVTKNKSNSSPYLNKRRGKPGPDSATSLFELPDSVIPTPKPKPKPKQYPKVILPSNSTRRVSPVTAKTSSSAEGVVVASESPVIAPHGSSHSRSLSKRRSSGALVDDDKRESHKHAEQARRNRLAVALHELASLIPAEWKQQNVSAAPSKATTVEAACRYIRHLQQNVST"}
{"Sequence": "CTTTCCCGATCTTGAGGAGTGGGTGTAGCACATTTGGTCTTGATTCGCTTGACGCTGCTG", "fluorescence intensity [a.u.]": 4620}
{"Sequence": "CTTCTGTAAATTTGTGCCGTGGGTGGACGCGCCCCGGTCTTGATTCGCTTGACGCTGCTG", "fluorescence intensity [a.u.]": 5240}
{"Sequence": "AGGAACTTGAGCGTAAACGTGGACGTCTGCCTGTCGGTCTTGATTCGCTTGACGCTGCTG", "fluorescence intensity [a.u.]": 11100}
{"Sequence": "CTTTCCCGATCTTTTCACGTGGCGTTAGCACATTTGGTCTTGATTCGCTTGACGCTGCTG", "fluorescence intensity [a.u.]": 14900}
{"Sequence": "AAGCGGCCGTTGGCGGCCGTGGGTAAGTTATGCATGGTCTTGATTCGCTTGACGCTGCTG", "fluorescence intensity [a.u.]": 5150}
{"data": "Block 3", "target": "Histone acetyltransferase KAT6A, both winged helices, GST fusion (KAT6A, Homo sapiens, UniProt Q92794, residues 1-181)", "method": "protein binding microarray", "form": "double-stranded DNA, one strand shown", "matrix": "in vitro", "concentration": "not given", "setting": "8-mer, flanks averaged, mean of 2 arrays, mostly near background", "reference": "not given", "reading": "higher = stronger binding", "Construct (chain)": "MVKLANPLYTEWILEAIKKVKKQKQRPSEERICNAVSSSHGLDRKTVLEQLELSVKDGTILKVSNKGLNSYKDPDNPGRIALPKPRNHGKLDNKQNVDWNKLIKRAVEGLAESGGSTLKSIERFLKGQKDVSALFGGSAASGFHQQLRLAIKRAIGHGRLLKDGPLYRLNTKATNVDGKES"}
{"Sequence": "TGGTGCAA", "E-score": -0.106}
{"Sequence": "AGCTCGGC", "E-score": 0.294}
{"Sequence": "CTGTGCAA", "E-score": -0.176}
{"Sequence": "CGGTTAAG", "E-score": 0.125}
{"Sequence": "CTTCCGCC", "E-score": 0.252}
{"Sequence": "CCTGCCCA", "E-score": -0.198}
{"data": "Single results of other studies"}
{"Molecule": "PhoQ, residues 284 288 289 292 302 303 WVSSAF", "target": "PhoP, residues 12 14 15 18 19 NHFIF (Escherichia coli, UniProt P23836)", "test": "Sort-seq, item: YFP reporter", "test system": "E. coli", "setting": "PhoQ-PhoP variant library, added: 10 µM Mg2+", "how to read": "reference: high Mg2+ state, higher = stronger signaling", "quantity": "fold induction", "result": 3.03}
{"note": "A few entries again (block 2):"}
{"Sequence": "AGGAACTTGAGCGTAAACGTGGACGTCTGCCTGTCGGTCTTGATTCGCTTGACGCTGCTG", "fluorescence intensity [a.u.]": 11100}
{"Sequence": "CTTTCCCGATCTTTTCACGTGGCGTTAGCACATTTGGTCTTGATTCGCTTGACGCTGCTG", "fluorescence intensity [a.u.]": 14900}
